Assay results from different studies.
Every numbered part comes from another study and shows a few of its results, in no order. Several values in a cell are separate wells, animals, samples, runs or records.
UniProt P10721, sequence (whole entry, unmodified, looked up): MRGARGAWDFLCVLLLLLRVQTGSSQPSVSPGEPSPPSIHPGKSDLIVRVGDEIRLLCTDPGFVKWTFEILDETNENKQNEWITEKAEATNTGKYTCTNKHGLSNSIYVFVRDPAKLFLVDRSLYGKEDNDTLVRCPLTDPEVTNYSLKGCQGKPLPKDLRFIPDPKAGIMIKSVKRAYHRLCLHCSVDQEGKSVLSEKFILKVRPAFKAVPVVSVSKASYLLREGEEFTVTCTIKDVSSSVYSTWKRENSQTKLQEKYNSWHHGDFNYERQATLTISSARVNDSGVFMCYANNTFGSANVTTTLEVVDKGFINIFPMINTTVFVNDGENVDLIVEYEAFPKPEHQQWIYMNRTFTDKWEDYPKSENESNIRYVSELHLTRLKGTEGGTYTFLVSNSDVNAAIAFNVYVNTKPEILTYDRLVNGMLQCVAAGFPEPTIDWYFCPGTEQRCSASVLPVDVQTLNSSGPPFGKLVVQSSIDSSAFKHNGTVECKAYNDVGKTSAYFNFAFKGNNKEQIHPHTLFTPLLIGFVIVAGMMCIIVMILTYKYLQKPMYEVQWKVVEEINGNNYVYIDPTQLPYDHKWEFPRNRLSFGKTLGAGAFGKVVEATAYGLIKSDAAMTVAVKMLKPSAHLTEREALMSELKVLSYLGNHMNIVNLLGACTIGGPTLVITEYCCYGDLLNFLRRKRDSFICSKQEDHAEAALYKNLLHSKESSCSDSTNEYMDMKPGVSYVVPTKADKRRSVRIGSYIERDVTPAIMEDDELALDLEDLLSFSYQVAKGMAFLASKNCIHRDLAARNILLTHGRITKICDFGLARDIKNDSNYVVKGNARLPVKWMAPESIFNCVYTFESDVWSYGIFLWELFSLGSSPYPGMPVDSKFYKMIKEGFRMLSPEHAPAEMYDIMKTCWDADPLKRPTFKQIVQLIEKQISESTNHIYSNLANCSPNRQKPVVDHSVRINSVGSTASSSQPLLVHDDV
UniProt Q96L34, sequence (whole entry, looked up): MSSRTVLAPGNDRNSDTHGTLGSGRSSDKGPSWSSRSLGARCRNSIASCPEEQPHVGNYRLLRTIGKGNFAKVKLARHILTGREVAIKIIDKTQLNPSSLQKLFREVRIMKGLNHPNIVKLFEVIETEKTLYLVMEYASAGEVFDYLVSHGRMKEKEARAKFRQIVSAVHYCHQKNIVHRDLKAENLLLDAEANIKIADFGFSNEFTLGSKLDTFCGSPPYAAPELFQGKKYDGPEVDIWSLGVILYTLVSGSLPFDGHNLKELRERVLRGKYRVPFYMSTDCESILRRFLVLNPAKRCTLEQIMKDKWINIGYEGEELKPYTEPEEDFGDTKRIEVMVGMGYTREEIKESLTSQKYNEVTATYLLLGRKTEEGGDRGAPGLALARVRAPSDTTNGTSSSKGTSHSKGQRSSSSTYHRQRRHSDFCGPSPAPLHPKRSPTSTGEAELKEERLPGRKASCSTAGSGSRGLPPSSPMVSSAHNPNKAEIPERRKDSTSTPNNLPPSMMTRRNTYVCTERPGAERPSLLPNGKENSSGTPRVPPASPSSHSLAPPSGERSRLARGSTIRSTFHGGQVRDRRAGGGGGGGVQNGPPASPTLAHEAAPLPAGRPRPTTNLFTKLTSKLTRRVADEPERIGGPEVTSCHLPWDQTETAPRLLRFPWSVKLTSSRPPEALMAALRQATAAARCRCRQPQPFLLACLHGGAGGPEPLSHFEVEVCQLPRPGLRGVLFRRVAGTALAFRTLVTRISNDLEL
UniProt Q13237, sequence (whole entry, looked up): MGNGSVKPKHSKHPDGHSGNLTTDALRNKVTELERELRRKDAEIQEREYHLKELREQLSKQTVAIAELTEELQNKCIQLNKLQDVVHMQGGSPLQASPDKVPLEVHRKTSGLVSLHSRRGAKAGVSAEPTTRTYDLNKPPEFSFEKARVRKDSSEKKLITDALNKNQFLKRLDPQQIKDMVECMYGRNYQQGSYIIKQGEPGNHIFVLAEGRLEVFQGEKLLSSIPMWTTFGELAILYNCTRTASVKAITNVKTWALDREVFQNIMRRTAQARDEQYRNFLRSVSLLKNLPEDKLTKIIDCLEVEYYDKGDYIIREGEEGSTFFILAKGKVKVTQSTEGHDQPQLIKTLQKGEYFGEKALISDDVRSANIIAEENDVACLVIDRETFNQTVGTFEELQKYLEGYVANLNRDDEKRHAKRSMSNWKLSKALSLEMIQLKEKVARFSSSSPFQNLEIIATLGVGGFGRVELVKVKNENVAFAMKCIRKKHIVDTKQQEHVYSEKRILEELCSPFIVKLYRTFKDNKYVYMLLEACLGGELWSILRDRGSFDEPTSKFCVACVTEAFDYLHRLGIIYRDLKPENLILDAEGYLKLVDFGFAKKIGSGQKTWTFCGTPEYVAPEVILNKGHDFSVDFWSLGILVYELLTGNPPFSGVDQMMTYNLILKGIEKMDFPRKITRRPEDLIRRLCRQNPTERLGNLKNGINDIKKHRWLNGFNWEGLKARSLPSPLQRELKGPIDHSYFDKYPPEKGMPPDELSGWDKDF
UniProt Q9HAZ1, sequence (whole entry, looked up): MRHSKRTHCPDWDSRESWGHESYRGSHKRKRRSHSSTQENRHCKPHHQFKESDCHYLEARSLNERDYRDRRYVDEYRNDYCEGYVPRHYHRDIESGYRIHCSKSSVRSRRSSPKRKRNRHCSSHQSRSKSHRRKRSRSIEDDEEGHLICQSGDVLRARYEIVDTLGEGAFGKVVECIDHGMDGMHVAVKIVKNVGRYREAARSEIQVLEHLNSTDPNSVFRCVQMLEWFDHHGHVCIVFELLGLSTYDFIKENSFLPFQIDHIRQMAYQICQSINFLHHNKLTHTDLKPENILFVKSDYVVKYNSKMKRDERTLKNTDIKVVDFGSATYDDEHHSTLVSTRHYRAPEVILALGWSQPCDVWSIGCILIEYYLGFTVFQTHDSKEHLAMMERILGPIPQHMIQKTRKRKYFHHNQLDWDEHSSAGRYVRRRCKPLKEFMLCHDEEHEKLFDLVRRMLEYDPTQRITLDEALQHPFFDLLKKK
UniProt P28482, sequence (whole entry, looked up): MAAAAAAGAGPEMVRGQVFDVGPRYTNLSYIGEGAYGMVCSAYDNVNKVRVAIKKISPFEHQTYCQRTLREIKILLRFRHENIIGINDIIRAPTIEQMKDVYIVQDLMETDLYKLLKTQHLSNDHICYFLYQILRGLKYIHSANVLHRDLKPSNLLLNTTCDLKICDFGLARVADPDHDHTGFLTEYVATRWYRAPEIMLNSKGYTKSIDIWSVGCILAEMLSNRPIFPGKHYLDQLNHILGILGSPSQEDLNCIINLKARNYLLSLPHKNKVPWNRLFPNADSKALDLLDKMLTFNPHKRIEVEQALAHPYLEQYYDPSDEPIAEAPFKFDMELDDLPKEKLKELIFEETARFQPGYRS
UniProt P32298, sequence (whole entry, looked up): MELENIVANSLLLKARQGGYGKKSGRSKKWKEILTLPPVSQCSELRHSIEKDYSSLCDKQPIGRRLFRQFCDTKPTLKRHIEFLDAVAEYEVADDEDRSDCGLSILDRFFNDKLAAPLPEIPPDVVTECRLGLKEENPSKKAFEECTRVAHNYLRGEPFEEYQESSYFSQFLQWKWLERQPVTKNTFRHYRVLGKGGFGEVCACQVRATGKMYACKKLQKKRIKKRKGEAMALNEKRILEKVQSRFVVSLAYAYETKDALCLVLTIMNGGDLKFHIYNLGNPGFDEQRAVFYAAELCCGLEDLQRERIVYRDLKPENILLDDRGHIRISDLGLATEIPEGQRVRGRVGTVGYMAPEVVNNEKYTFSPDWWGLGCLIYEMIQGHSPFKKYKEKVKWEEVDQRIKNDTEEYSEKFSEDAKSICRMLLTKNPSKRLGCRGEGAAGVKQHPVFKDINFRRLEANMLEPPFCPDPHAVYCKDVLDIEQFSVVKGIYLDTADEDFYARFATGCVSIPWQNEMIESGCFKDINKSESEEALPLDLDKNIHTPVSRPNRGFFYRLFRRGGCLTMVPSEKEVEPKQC
UniProt Q6P2M8, sequence (whole entry, looked up): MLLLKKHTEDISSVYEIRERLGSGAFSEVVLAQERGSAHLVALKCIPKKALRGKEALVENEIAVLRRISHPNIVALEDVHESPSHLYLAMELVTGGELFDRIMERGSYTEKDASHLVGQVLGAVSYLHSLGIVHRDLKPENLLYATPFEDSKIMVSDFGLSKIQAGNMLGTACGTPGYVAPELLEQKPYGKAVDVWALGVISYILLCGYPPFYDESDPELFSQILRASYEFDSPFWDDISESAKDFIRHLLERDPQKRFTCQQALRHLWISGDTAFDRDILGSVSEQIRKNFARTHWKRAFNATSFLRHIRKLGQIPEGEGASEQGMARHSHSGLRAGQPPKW
UniProt Q6P3R8, sequence (whole entry, looked up): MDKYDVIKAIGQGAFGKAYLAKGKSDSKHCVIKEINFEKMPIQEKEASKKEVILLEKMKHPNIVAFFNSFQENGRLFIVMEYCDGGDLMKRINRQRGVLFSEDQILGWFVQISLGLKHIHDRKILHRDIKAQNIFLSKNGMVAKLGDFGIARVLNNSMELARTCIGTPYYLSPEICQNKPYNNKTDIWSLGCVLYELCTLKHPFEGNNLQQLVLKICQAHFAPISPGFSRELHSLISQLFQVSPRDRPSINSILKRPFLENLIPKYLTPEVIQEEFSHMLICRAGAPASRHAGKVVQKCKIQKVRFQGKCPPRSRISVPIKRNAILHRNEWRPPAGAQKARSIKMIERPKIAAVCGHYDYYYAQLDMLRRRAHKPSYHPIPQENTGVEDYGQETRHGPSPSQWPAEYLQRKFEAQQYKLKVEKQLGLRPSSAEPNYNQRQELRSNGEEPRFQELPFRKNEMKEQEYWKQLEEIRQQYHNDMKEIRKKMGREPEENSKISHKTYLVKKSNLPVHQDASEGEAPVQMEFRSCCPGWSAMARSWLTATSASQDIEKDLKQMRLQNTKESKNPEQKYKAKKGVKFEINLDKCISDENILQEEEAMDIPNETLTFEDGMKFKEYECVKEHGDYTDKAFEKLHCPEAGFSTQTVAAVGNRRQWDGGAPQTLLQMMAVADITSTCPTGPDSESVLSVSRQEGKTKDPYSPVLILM

Block 1
Compound: CCOC(=O)c1cc2cc(-c3cc(C(=O)NCc4ccc(C(=O)O)cc4)nn3C)ccc2[nH]1
Technique: competition with immobilised ligand
Tested at: 0.1 µM
EIF2AK1 (Homo sapiens, UniProt Q9BQI3); cell-free assay — remaining binding: 91%.
CDK8 (Homo sapiens, UniProt P49336); cell-free assay — remaining binding: 62%.
Myosin-IIIb (MYO3B, Homo sapiens, UniProt Q8WXR4); binding — remaining binding: 84%.
It gave 100% for remaining binding (NEK5 (Homo sapiens, UniProt Q6P3R8); cell-free assay).
For KIT (Homo sapiens, UniProt P10721, D816V); cell-free assay: remaining binding read 100%.

Block 2
Cell line: HaCaT
Tested at: 100 µM
Time: 18 h
The viability of `N#CC1(c2ccc(NC(=O)c3cccnc3NCc3ccncc3)cc2)CCCC1` is reported as 35.8%.
`c1cc(CN2CCCNCCNCCCNCC2)ccc1CN1CCCNCCNCCCNCC1` has a viability of 112%.
With `CCCCCCCCCCC[C@@H](C[C@@H]1OC(=O)[C@H]1CCCCCC)OC(=O)[C@H](CC(C)C)NC=O` the viability was 57%.
`COc1ccc2[nH]c([S+]([O-])Cc3ncc(C)c(OC)c3C)nc2c1` (stereo not shown) gave a viability of 93%.
For `CC(Cc1cccc(C(F)(F)F)c1)NCCOC(=O)c1ccccc1` (stereo not shown), the viability was 16.5%.
`CCCc1cc(=O)[nH]c(=S)[nH]1` has a viability of 99.2%.
`CC(C)C[C@H](NC(=O)[C@H](CCc1ccccc1)NC(=O)CN1CCOCC1)C(=O)N[C@@H](Cc1ccccc1)C(=O)N[C@@H](CC(C)C)C(=O)[C@@]1(C)CO1` gave a viability of 27.9%.
`C[C@@H]1O[C@@H](O[C@H]2[C@H](Oc3cc(O)c4c(c3)O[C@H](c3ccc(O)cc3)CC4=O)O[C@H](CO)[C@@H](O)[C@@H]2O)[C@H](O)[C@H](O)[C@H]1O` gave a viability of 98.9%.

Block 3
Cell line: mouse MPNST tumor cells
Technique: high-content nuclear imaging
Measured: cell number
Tested at: 10 µM
Time: 12 h
Setting: mean of 2 replicates
Relative to: plate mean
Direction: higher = more cells
`O=[N+]([O-])c1cc(Cl)ccc1S(=O)(=O)c1ccccc1` has a nuclei count of -1.88 z-score.
`CCN1CCCC1CNC(=O)c1cc(S(=O)(=O)CC)c(N)cc1OC` (stereo not shown) gave a nuclei count of 0.524 z-score.
For `CCCCCOC(=O)Nc1nc(=O)n([C@@H]2O[C@H](C)[C@@H](O)[C@H]2O)cc1F`, the nuclei count was 2.11 z-score and 0.142 z-score.
`Nc1ccccc1S(N)(=O)=O` gave a nuclei count of 1.18 z-score.
`COc1ccc(-n2[nH]c3c4c(ncc3c2=O)CCCCC4)cc1` has a nuclei count of 1.65 z-score.

Block 4
SMILES: C[S+]([O-])c1ccc(-c2nc(-c3ccncc3)c(-c3ccc(F)cc3)[nH]2)cc1 (stereo not shown)
Read-out: enzyme activity
Mode: inhibitor
Tested at: 0.5 µM
Relative to: control
MET (Homo sapiens, UniProt P08581) — remaining activity: 103%.
For RPS6KA4 (Homo sapiens, UniProt O75676): remaining activity read 99.6%.
It gave 97.3% for remaining activity (PLK3 (Homo sapiens, UniProt Q9H4B4)).
TXK (Homo sapiens, UniProt P42681) — remaining activity: 63.9%.
The remaining activity was 94.7% (MAPK1 (Homo sapiens, UniProt P28482)).
It gave 102% for remaining activity (PNCK (Homo sapiens, UniProt Q6P2M8)).
The remaining activity was 101% (CAMK4 (Homo sapiens, UniProt Q16566)).
It gave 103% for remaining activity (DDR2 (Homo sapiens, UniProt Q16832)).
It gave 94.8% for remaining activity (MAP2K1 (Homo sapiens, UniProt Q02750)).
It gave 92.2% for remaining activity (NEK3 (Homo sapiens, UniProt P51956)).
For AKT2 (Homo sapiens, UniProt P31751): remaining activity read 96.8%.
GRK4 (Homo sapiens, UniProt P32298) — remaining activity: 95.5%.
PRKG2 (Homo sapiens, UniProt Q13237) — remaining activity: 92.7%.
It gave 91.2% for remaining activity (Cyclin-dependent kinase 1, with cyclin A (CDK1, Homo sapiens, UniProt P06493)).
CLK4 (Homo sapiens, UniProt Q9HAZ1) — remaining activity: 98.7%.
It gave 98.6% for remaining activity (Cyclin-dependent kinase 9, with cyclin K (CDK9, Homo sapiens, UniProt P50750)).
MINK1 (Homo sapiens, UniProt Q8N4C8) — remaining activity: 107%.
It gave 98.5% for remaining activity (MARK4 (Homo sapiens, UniProt Q96L34)).
The remaining activity was 105% (CDC42BPB (Homo sapiens, UniProt Q9Y5S2)).
MARK2 (Homo sapiens, UniProt Q7KZI7) — remaining activity: 99.1%.

Block 5
Host: mouse
Sample: microsomes or S9
Tested at: 2 µM
Time: 0.5 h
With `COc1cc(OC)nc(OC(C(=O)N2CCOCC2)C(C)C)n1` (stereo not shown) the remaining compound was 87.3%.
With `Cc1nn(C)c(C)c1CN(C)S(=O)(=O)c1c(C)n[nH]c1C` the remaining compound was 55%.
`CO/C=C(/C(=O)OC)n1c(COc2c(C)cc(C)cc2C)noc1=O` gave a remaining compound of 68.4%.
`Cc1nc(NC(C)Cc2ccccc2)c(C#N)c2c1COC(C)(C)C2` (stereo not shown) gave a remaining compound of 3.25%.
For `CCOCCCN1C(=O)CN(S(C)(=O)=O)CC1(C)C(=O)NCc1ccc(C)cc1` (stereo not shown), the remaining compound was 45.9%.
The remaining compound of `Cc1ccc(-n2ccc3c(cnc4ccn(-n5cnnc5)c(=O)c43)c2=O)cc1C` is reported as greater than 99.9%.
`CN(Cc1ccc(F)cc1)Cc1ccc([N+](=O)[O-])cc1` has a remaining compound of 0.104%.
The remaining compound of `CCOC(=O)c1c(NC(=O)c2cc(OC)c(OC)c(OC)c2)sc(C)c1-c1ccc(OC)c(OC)c1` is reported as less than 1%.
